Results pooled from the literature.
Each line is one published result; not all experiments were run side by side. ± marks the error that the study gave.

`CCCCCCCCCCCCOS(=O)(=O)[O-].[Na+]` — result for cytotoxicity: “not toxic” (HCE; MTT; up to 50 µM).
The relative survival of `O=NN1CC2CC(C1)c1cc3nccnc3cc12` is reported as 86.5% (TK6 expressing CYP3A4; 12.5 µM, 4 h, without S9; baseline: vehicle).
For `O=c1cc(-c2ccc(O)cc2)oc2c([C@@H]3O[C@H](CO)[C@@H](O)[C@H](O)[C@H]3O)c(O)cc(O)c12`, the viability was 132% (Caco-2; CCK-8; 1.25 µM, 24 h).
`O=C(O[C@@H]1Cc2c(O)cc(O)cc2O[C@@H]1c1cc(O)c(O)c(O)c1)c1cc(O)c(O)c(O)c1` has a cytotoxicity of 0% (Vero E6; 25 µM).
`O=C(NCCCN1CCCCCC1)c1ccc2c(c1)sc1nc(-c3ccccc3)cn12` gave an AC50 of 7.94 µM (Vero E6, no virus; cytotoxicity, CellTiter-Glo).
For `CCCc1ccc(-c2ccc([C@@H](CO)C(=O)N[C@H](C)c3ccccc3)cc2)cc1`, the efflux ratio was 2 (MDCK-MDR1; baseline: B-to-A over A-to-B).
For `CCOC(=O)c1ccc(NC(=O)c2sc3nc(-c4ccccc4)cc(C(F)(F)F)c3c2N)cc1`, the viability was 15 ± 3% (MDA-MB-231; MTT; 100 µM, 72 h).
For `O=C(CC1NCCCC1O)Cn1cnc2cc(Br)c(Cl)cc2c1=O` (centres unmarked), the intracellular concentration was ~800 nM (mouse embryonic fibroblasts; ELISA; 20 nM, 2 h).
For `CC(C)C[C@@H](NC(=O)[C@H](C)NC(=O)CNC(=O)[C@@H](NC=O)C(C)C)C(=O)N[C@@H](C)C(=O)N[C@@H](C(=O)N[C@H](C(=O)N[C@@H](C(=O)N[C@@H](Cc1c[nH]c2ccccc12)C(=O)N[C@H](CC(C)C)C(=O)N[C@@H](Cc1cccc2cc[nH]c12)C(=O)N[C@H](CC(C)C)C(=O)N[C@@H](Cc1c[nH]c2ccccc12)C(=O)N[C@H](CC(C)C)C(=O)N[C@@H](Cc1c[nH]c2ccccc12)C(=O)NCCO)C(C)C)C(C)C)C(C)C`, the IC50 was 0.00238 ± 0.00053 µM (P388 (mouse); cytotoxicity, WST-1; 92 h).
`CC(C)CC(=O)OC[C@H]1O[C@@](C#N)(c2ccc3c(N)ncnn23)[C@H](O)[C@@H]1O` gave an efflux ratio of 2.72 (Caco-2; 9 µM, 2 h).
For `CC(C)C[C@@H](C=O)NC(=O)[C@H](CC(C)C)NC(=O)[C@H](CC(C)C)NC(=O)OCc1ccccc1`, “ATP level reduction” read -2.25% (ARPE-19 HiBiT-fibulin-3 knock-in; cell viability, CellTiter-Glo; 1.66 µM, 48 h; baseline: vehicle).
For `COc1ncc(F)cc1CNc1ccc(Cc2c[nH]c3ncc(C)cc23)c(F)n1`, the CC50 was > 20 µM (human cells).
`Oc1cc(Cl)ccc1Oc1ccc(Cl)cc1Cl` has a response probability of 99.7% (HepG2; cell membrane permeability; concentration not given, 24 h, necrosis).
The CC50 of `CCCC(=O)NC(c1cccs1)c1ccc2cccnc2c1O` (centres unmarked) is reported as > 20 µM (human cells).
`CC(C)C[C@H]1C(=O)O[C@H](Cc2ccc(N3CCOCC3)cc2)C(=O)N(C)[C@@H](CC(C)C)C(=O)O[C@H](C)C(=O)N(C)[C@@H](CC(C)C)C(=O)O[C@H](Cc2ccc(N3CCOCC3)cc2)C(=O)N(C)[C@@H](CC(C)C)C(=O)O[C@H](C)C(=O)N1C` has a Papp of 0.8 ×10⁻⁶ cm/s (MDCK-MDR1).
For `C[C@@H](NC(=O)[C@@H](C)NC(=O)[C@H](CCCCNC(=O)c1ccc(NC(=O)CCl)cc1)NC(=O)c1ccc(NC(=O)CCl)cc1)C(=O)O`, the efflux ratio was 1.29 (Caco-2; 10 µM; baseline: B-A over A-B).
For `CC(C)C[C@@H]1NC(=O)[C@H](CCC(=O)O)NC(=O)[C@H]2CCCN2C(=O)[C@@H](N)CSSC[C@@H](C(=O)O)NC(=O)[C@@H]2CCCN2C(=O)[C@H](Cc2ccccc2)NC(=O)[C@H](CC(C)C)N(C)C(=O)[C@H]([C@@H](C)O)NC(=O)[C@H](C(C)C)NC1=O`, “Papp A to B” read 0.16 ×10⁻⁶ cm/s (MDCK-MDR1; HBSS, 0.25% BSA; 2 h).
The chance response of `O=c1ccc2ccccc2o1` is reported as 0.05% (NHEK; cell membrane permeability; concentration not given, 24 h, apoptosis, necrosis panel).
For `O=c1[nH]c2ccccc2s1`, the IC10 was 982 µM (HEK293H PPARγ-UAS-bla; cytotoxicity; freely dissolved concentration).
`CC(C)[C@H]1C(=O)N[C@@H](CCCN=C(N)N)C(=O)NCC(=O)N[C@@H](CC(=O)O)C(=O)N[C@H](Cc2ccccc2)C(=O)N1C` gave an efflux ratio of 1.1 (Caco-2; 200 µM; baseline: Papp B-A over Papp A-B).
`COc1cc(CNC(=O)c2sc3nc(-c4ccccc4)cc(C(F)(F)F)c3c2N)cc(OC)c1OC` has a viability of 35 ± 4% (MDA-MB-231; MTT; 100 µM, 72 h).
`O=C(Nc1cnccc1Cl)N1CCN(Cc2ccc3c(c2)OC(F)(F)O3)CC1` gave a supernatant concentration of 84.4 ± 7.1 nM (COS cells expressing human FAAH; 100 nM, 0 h).
`CC[C@H](C)[C@H]1C(=O)N[C@@H]([C@@H](C)O)C(=O)N[C@@H](C)C(=O)N[C@@H](Cc2ccccc2)C(=O)N[C@@H](CC(C)C)C(=O)NCC(=O)N[C@@H](CC(C)C)C(=O)N2CCC[C@@H]2C(=O)N[C@H](Cc2ccc(O)cc2)C(=O)N2CCC[C@H]2C(=O)NCC(=O)N[C@@H](CCCNC(=N)N)C(=O)N1C`: “Papp A to B” 0.07 ×10⁻⁶ cm/s (MDCK-MDR1; HBSS, 0.25% BSA; 2 h).
For `C/C=C(/C)C(=O)O[C@H]1C(C)=C2[C@H]([C@@H]1OC(=O)CCCCCCC)[C@@](C)(OC(C)=O)C[C@H](OC(=O)CCC)[C@@]1(O)[C@H]2OC(=O)[C@@]1(C)O`, “maximum lethal concentration” read > 10 µM (MDA-MB-231; toxic above this concentration).
For `O=C(Nc1cccnn1)N1CCC(=Cc2cccc(Oc3ccc(C(F)(F)F)cn3)c2)CC1`, the concentration was 64.4 ± 1.7 nM (COS cells expressing human FAAH; COS cell culture supernatant; 100 nM, 3 h).
`Oc1ccc(C(c2ccc(O)cc2)(C(F)(F)F)C(F)(F)F)cc1` gave a mitotic cells of 1.59 fold (HepG2 spheroids; flow cytometry, item: phospho-histone H3; 10 µM, 96 h; baseline: solvent control).
The viability of `Cc1cc(-c2ccccc2)nc2sc(C(=O)NCc3ccccc3)c(N)c12` is reported as 49 ± 2% (MDA-MB-231; MTT; 100 µM, 72 h).
With `CN(C(=O)n1cnc(-c2ccc[n+]([O-])c2)c1)C1CCCCC1` the concentration was 100.5 ± 1 nM (COS cells expressing human FAAH; COS cell culture supernatant; 100 nM, 1 h).
The viability of `COCCOCCOCCNC(=O)c1sc2nc(-c3ccccc3)cc(C(F)(F)F)c2c1N` is reported as 9 ± 2% (MDA-MB-231; MTT; 100 µM, 72 h).
With `O=C(/C=C/c1ccc(O)c(O)c1/C=C/c1ccc(O)c(O)c1)O[C@H](Cc1ccc(O)c(O)c1)C(=O)O` the cytotoxicity was 0% (Vero E6; 50 µM).
`CC[C@H](C)[C@H]1C(=O)N[C@@H](Cc2ccc(O)cc2)C(=O)N2CCC[C@H]2C(=O)N[C@H]([C@H](C)O)C(=O)N[C@@H](CC(C)C)C(=O)N[C@@H](C(C)C)C(=O)N[C@@H](C)C(=O)N[C@@H](C)C(=O)N[C@@H](CO)C(=O)N[C@@H](CCC(=O)O)C(=O)N[C@H](CC(=O)O)C(=O)N[C@H](C(=O)O)CSSC[C@H](N)C(=O)N1C` — result for “Papp A to B”: 1.73 ×10⁻⁶ cm/s (MDCK-MDR1; HBSS, 0.25% BSA; 2 h).
The CC50 of `COc1cc2ncnc(Oc3cccc(NC(=O)Nc4cc(C(C)(C)C(F)(F)F)on4)c3)c2cc1OC` is reported as > 20 µM (human cells).
With `Oc1ccc(C2(c3ccc(O)cc3)c3ccccc3-c3ccccc32)cc1` the viable cells was 72.5 ± 3.7% (HepG2 spheroids, dissociated; annexin V-FITC/PI flow cytometry; 10 µM, 24 h).
`COCCOCCOCCNC(=O)CSc1nc(C)cc(-c2ccccc2)c1C#N` gave a viability of 39 ± 3% (MDA-MB-231; MTT; 100 µM, 72 h).
The intracellular fraction of `NC(=O)c1nc(F)c[nH]c1=O` is reported as 0.05 (Vero E6; added: verapamil).
`O=C(Nc1cnccc1Cl)N1CCN(Cc2ccc3c(c2)OC(F)(F)O3)CC1` — result for compound concentration: “not detected” (COS cells expressing human FAAH; cell lysate; 100 nM, 0 h, quantification limit 5 nM).
For `OO`, the cell survival was 62.1% (porcine IPEC-J2 cells; 400 µmol/L).
`O=S(=O)(c1ccc(O)cc1)c1ccc(O)cc1`: “early apoptotic cells” 10.6 ± 1.91% (HepG2 spheroids, dissociated; annexin V-FITC/PI flow cytometry; 0.1 µM, 24 h).
`COC(=O)CNC(=O)CSc1nc(C)cc(C)c1C#N` gave a viability of 78 ± 3% (MDA-MB-231; MTT; 100 µM, 72 h).
`COc1ccc(C[C@@H]2c3cc(Oc4cc(C[C@@H]5c6cc(O)c(OC)cc6CCN5C)ccc4O)c(OC)cc3CCN2C)cc1` gave a cytotoxicity of 0% (Vero E6; 25 µM).
For `COc1ccc(C(C)(C)c2cnc(SCCOc3ccc(-n4ccnc4)cc3)n2-c2ccc(F)cc2)cc1OC`, the EC50 was 3.9 µM (sandwich-cultured human hepatocytes; gene induction, inducer, item: CYP3A4 mRNA; 48 h).
For `Cc1cc(-c2ccccc2)nc(SCC(=O)NCc2ccccc2)c1C#N`, the viability was 49 ± 1% (MDA-MB-231; MTT; 100 µM, 72 h).
`CC(c1ccccc1)(c1ccc(O)cc1)c1ccc(O)cc1`: “early apoptotic cells” 19.1 ± 2.8% (HepG2 spheroids, dissociated; annexin V-FITC/PI flow cytometry; 1 µM, 24 h).
For `O=C(Nc1cccnn1)N1CCC(=Cc2cccc(Oc3ccc(C(F)(F)F)cn3)c2)CC1`, the intracellular concentration was 34 ± 2.3 nM (COS cells expressing human FAAH; cell lysate; 100 nM, 24 h).
For `COc1cc(CNC(=O)CSc2nc(C)cc(C)c2C#N)cc(OC)c1OC`, the viability was 48 ± 6% (MDA-MB-231; MTT; 100 µM, 72 h).
With `C=C[C@@](C)(/C=C/c1ccc(O)cc1)CCC=C(C)C` the cytotoxicity was 0% (Vero E6; 50 µM).
With `CCSc1nc2ccccc2n1Cc1nnc(-c2ccc(OC)cc2)o1` the viability was 69.5 ± 4% (neutrophils; fresh heparinized human blood; 200 µg/mL, 30 min).

Excerpt of the above:
With `O=C(/C=C/c1ccc(O)c(O)c1/C=C/c1ccc(O)c(O)c1)O[C@H](Cc1ccc(O)c(O)c1)C(=O)O` the cytotoxicity was 0% (Vero E6; 50 µM).
`CC[C@H](C)[C@H]1C(=O)N[C@@H](Cc2ccc(O)cc2)C(=O)N2CCC[C@H]2C(=O)N[C@H]([C@H](C)O)C(=O)N[C@@H](CC(C)C)C(=O)N[C@@H](C(C)C)C(=O)N[C@@H](C)C(=O)N[C@@H](C)C(=O)N[C@@H](CO)C(=O)N[C@@H](CCC(=O)O)C(=O)N[C@H](CC(=O)O)C(=O)N[C@H](C(=O)O)CSSC[C@H](N)C(=O)N1C` — result for “Papp A to B”: 1.73 ×10⁻⁶ cm/s (MDCK-MDR1; HBSS, 0.25% BSA; 2 h).
The CC50 of `COc1cc2ncnc(Oc3cccc(NC(=O)Nc4cc(C(C)(C)C(F)(F)F)on4)c3)c2cc1OC` is reported as > 20 µM (human cells).
